Published values pooled from the literature.
Protocols differ between the studies behind these lines. Numbers after ± are the reported error.

| Compound | test | test system | conditions | how to read | quantity | result |
| --- | --- | --- | --- | --- | --- | --- |
| CCCC[C@H](NC(=O)CNC(=O)CNC(=O)CN1CCN(CC(=O)O)CCN(CC(=O)O)CC1)C(=O)N[C@H]1CC(=O)NCCCC[C@@H](C(N)=O)NC(=O)[C@H](Cc2c[nH]c3ccccc23)NC(=O)[C@H](CCCNC(=N)N)NC(=O)[C@@H](Cc2ccccc2)NC(=O)[C@H](Cc2c[nH]cn2)NC1=O [technetium-99m labelled] | – | C57 mouse, tumor | iv, 0.037 MBq, 4 h | – | tissue uptake | 11.3 ± 2.81 %ID/g |
| Cc1cc(-c2ccc(NC(=O)[C@H](CCCCNC(=O)CCOCCOCCC(=O)N[C@H](Cc3ccccc3)C(=O)N[C@H]3CSSC[C@@H](C(=O)N[C@H](C(=O)O)[C@@H](C)O)NC(=O)[C@H]([C@@H](C)O)NC(=O)[C@H](CCCCN)NC(=O)[C@@H](Cc4c[nH]c5ccccc45)NC(=O)[C@H](Cc4ccc(O)cc4)NC3=O)NC(=O)CN3CCN(CC(=O)O)CCN(CC(=O)O)CCN(CC(=O)O)CC3)c(C)c2)ccc1N=Nc1ccc2c(S(=O)(=O)O)cc(S(=O)(=O)O)c(N)c2c1O [lutetium-177 labelled] | measured: non-haematologic adverse events | patients with metastatic neuroendocrine tumours | dose not given | – | patients with toxicity | 33% |
| CCCC[C@H](NC(=O)CCCCCCCNC(=O)CN1CCN(CC(=O)O)CCN(CC(=O)O)CC1)C(=O)N[C@H]1CC(=O)NCCCC[C@@H](C(N)=O)NC(=O)[C@H](Cc2c[nH]c3ccccc23)NC(=O)[C@H](CCCNC(=N)N)NC(=O)[C@@H](Cc2ccccc2)NC(=O)[C@H](Cc2c[nH]cn2)NC1=O [copper-64 labelled] | – | C57 mice, brain | intravenous, 0.37 MBq, 2 h | – | tissue uptake | 0.04 ± 0.01 %ID/g |
| N=C(N)NCCC[C@@H]1NC(=O)[C@H](CCCCNC(=O)CNC(=O)CNC(=O)CNC(=O)CC[C@H](NC(=O)CNC(=O)CNC(=O)CNC(=O)CN2CCN(CC(=O)O)CCN(CC(=O)O)CCN(CC(=O)O)CC2)C(=O)NCC(=O)NCC(=O)NCC(=O)NCCCC[C@@H]2NC(=O)[C@@H](Cc3ccccc3)NC(=O)[C@H](CC(=O)O)NC(=O)CNC(=O)[C@H](CCCNC(=N)N)NC2=O)NC(=O)[C@@H](Cc2ccccc2)NC(=O)[C@H](CC(=O)O)NC(=O)CNC1=O [indium-111 labelled] | – | female athymic nu/nu mice, heart | intravenous, 24 h | – | tissue uptake | 0.28 ± 0.04 %ID/g |
| COc1ccc2cc([C@H](C)C(=O)NCCCC[C@@H](NC(=O)[C@@H](Cc3ccccc3)NC(=O)[C@H](N)Cc3ccccc3)C(=O)O)ccc2c1 | – | hydrogel 0.8 wt% into PBS | 24 h, pH 7.4, 37 °C | – | cumulative release | 35.8% |
| N=C(N)NCCC[C@@H]1NC(=O)[C@H](CCCCNC(=O)CNC(=O)CNC(=O)CNC(=O)CC[C@H](NC(=O)CNC(=O)CNC(=O)CNC(=O)CC[C@H](NC(=O)CN2CCN(CC(=O)O)CCN(CC(=O)O)CCN(CC(=O)O)CC2)C(=O)NCC(=O)NCC(=O)NCC(=O)N[C@@H](CCC(=O)NCC(=O)NCC(=O)NCC(=O)NCCCC[C@@H]2NC(=O)[C@@H](Cc3ccccc3)NC(=O)[C@H](CC(=O)O)NC(=O)CNC(=O)[C@H](CCCNC(=N)N)NC2=O)C(=O)NCC(=O)NCC(=O)NCC(=O)NCCCC[C@@H]2NC(=O)[C@@H](Cc3ccccc3)NC(=O)[C@H](CC(=O)O)NC(=O)CNC(=O)[C@H](CCCNC(=N)N)NC2=O)C(=O)NCC(=O)NCC(=O)NCC(=O)NCCCC[C@@H]2NC(=O)[C@@H](Cc3ccccc3)NC(=O)[C@H](CC(=O)O)NC(=O)CNC(=O)[C@H](CCCNC(=N)N)NC2=O)NC(=O)[C@@H](Cc2ccccc2)NC(=O)[C@H](CC(=O)O)NC(=O)CNC1=O [indium-111 labelled] | – | female athymic nu/nu mice, U87MG tumour | intravenous, 111 kBq, 72 h | – | tissue uptake | 5.59 ± 0.54 %ID/g |
| C=C1CC[C@H](OCCCNC(=O)CCOCCOCCOCCOCCOCCOCCOCCOCCOCCOCCOCCOCCOCCOCCOCCOCCOCCOCCOCCOCCOCCOCCOCCOCCOCCOCCOCCOCCOCCOCCOCCOCCOCCOCCOCCOCCNC(=O)CCN2C(=O)CC(SC[C@H](NC(=O)[C@H](Cc3ccccc3)NC(=O)[C@H](CC(N)=O)NC(=O)[C@H](Cc3c[nH]cn3)NC(=O)[C@@H](NC(=O)[C@H](CC(=O)O)NC(=O)[C@H](CCC(N)=O)NC(=O)[C@H](CC(C)C)NC(=O)[C@H](CCCCN)NC(=O)[C@H](CCCCN)NC(=O)[C@H](CCCNC(=N)N)NC(=O)[C@H](CC(C)C)NC(=O)[C@H](Cc3c[nH]c4ccccc34)NC(=O)[C@H](CCC(=O)O)NC(=O)[C@@H](NC(=O)[C@H](CCCNC(=N)N)NC(=O)[C@H](CCC(=O)O)NC(=O)[C@H](CCSC)NC(=O)[C@H](CO)NC(=O)[C@H](CC(N)=O)NC(=O)[C@H](CC(C)C)NC(=O)[C@H](Cc3c[nH]cn3)NC(=O)[C@H](CCCCN)NC(=O)CNC(=O)[C@H](CC(C)C)NC(=O)[C@H](CC(N)=O)NC(=O)[C@H](Cc3c[nH]cn3)NC(=O)[C@H](CCSC)NC(=O)[C@H](CC(C)C)NC(=O)[C@H](CCC(N)=O)NC(=O)[C@@H](NC(=O)[C@H](CCC(=O)O)NC(=O)[C@H](CO)NC(=O)[C@@H](NC(=O)[C@@H](N)CO)C(C)C)[C@@H](C)CC)C(C)C)C(C)C)C(N)=O)C2=O)C/C1=C/C=C1\CCC[C@]2(C)[C@@H]([C@H](C)CCCC(C)(C)O)CC[C@@H]12 (stereo partly drawn) | – | cynomolgus monkey | sc, 20 µg/kg every other day, 21 days | reference: 0.7 µg/kg dose | dose-normalised Cmax | 0.93 |
| N=C(N)NCCC[C@@H]1NC(=O)[C@H](CCCCNC(=O)CC[C@H](NC(=O)CC[C@H](NC(=O)CN2CCN(CC(=O)O)CCN(CC(=O)O)CCN(CC(=O)O)CC2)C(=O)N[C@@H](CCC(=O)NCCCC[C@@H]2NC(=O)[C@@H](Cc3ccccc3)NC(=O)[C@H](CC(=O)O)NC(=O)CNC(=O)[C@H](CCCNC(=N)N)NC2=O)C(=O)NCCCC[C@@H]2NC(=O)[C@@H](Cc3ccccc3)NC(=O)[C@H](CC(=O)O)NC(=O)CNC(=O)[C@H](CCCNC(=N)N)NC2=O)C(=O)NCCCC[C@@H]2NC(=O)[C@@H](Cc3ccccc3)NC(=O)[C@H](CC(=O)O)NC(=O)CNC(=O)[C@H](CCCNC(=N)N)NC2=O)NC(=O)[C@@H](Cc2ccccc2)NC(=O)[C@H](CC(=O)O)NC(=O)CNC1=O [indium-111 labelled] | – | female athymic nu/nu mice, eyes | intravenous, 1 h | – | tissue uptake | 1.23 ± 0.1 %ID/g |
| CC(C)C[C@@H](NC(=O)[C@@H](CC(C)C)NC(=O)[C@@H](CC(=O)O)NC(=O)[C@@H](CC(C)C)NC(=O)[C@@H](CC(C)C)NC(=O)[C@@H](CC(C)C)NC(=O)[C@H](NC(=O)[C@@H](CC(=O)O)NC(=O)[C@H](NC(=O)[C@H]1CCCN1C(=O)[C@@H](Cc1ccccc1)NC(=O)[C@@H](CC(C)C)NC(=O)[C@@H](CC(C)C)NC(=O)[C@@H](CC(=O)O)NC(=O)[C@@H](CC(C)C)NC(=O)[C@@H](Cc1ccc(O)cc1)NC(=O)[C@@H](C)NC(=O)[C@@H](CCCNC(=N)N)NC(=O)[C@@H](Cc1c[nH]c2ccccc12)NC(=O)[C@H]1CCCN1C(=O)[C@@H](CC(N)=O)NC(=O)[C@@H](CCC(N)=O)NC(=O)[C@@H](CC(=O)O)NC(=O)[C@@H](CC(=O)O)NC(=O)[C@@H](CSC1CC(=O)N(CCNC(=O)CN2CCN(CC(=O)O)CCN(CC(=O)O)CC2)C1=O)NC(=O)[C@@H](C)N)[C@H](C)O)[C@H](C)O)C(=O)N[C@H](Cc1c[nH]c2ccccc12)C(=O)O (stereo partly drawn) [fluorine-18 labelled] | – | male nude mice, LNCaP xenograft | intravenous, 4 h | reference: tumour over bone | tumour-to-bone ratio | 4.3 ± 1.1 |

Excerpt of the above:
| Compound | test | test system | conditions | how to read | quantity | result |
| --- | --- | --- | --- | --- | --- | --- |
| Cc1cc(-c2ccc(NC(=O)[C@H](CCCCNC(=O)CCOCCOCCC(=O)N[C@H](Cc3ccccc3)C(=O)N[C@H]3CSSC[C@@H](C(=O)N[C@H](C(=O)O)[C@@H](C)O)NC(=O)[C@H]([C@@H](C)O)NC(=O)[C@H](CCCCN)NC(=O)[C@@H](Cc4c[nH]c5ccccc45)NC(=O)[C@H](Cc4ccc(O)cc4)NC3=O)NC(=O)CN3CCN(CC(=O)O)CCN(CC(=O)O)CCN(CC(=O)O)CC3)c(C)c2)ccc1N=Nc1ccc2c(S(=O)(=O)O)cc(S(=O)(=O)O)c(N)c2c1O [lutetium-177 labelled] | measured: non-haematologic adverse events | patients with metastatic neuroendocrine tumours | dose not given | – | patients with toxicity | 33% |
